Experimental data of several laboratories.
A part holds a random share of what one study measured.
Sequence of UniProt P51817 (whole entry, looked up): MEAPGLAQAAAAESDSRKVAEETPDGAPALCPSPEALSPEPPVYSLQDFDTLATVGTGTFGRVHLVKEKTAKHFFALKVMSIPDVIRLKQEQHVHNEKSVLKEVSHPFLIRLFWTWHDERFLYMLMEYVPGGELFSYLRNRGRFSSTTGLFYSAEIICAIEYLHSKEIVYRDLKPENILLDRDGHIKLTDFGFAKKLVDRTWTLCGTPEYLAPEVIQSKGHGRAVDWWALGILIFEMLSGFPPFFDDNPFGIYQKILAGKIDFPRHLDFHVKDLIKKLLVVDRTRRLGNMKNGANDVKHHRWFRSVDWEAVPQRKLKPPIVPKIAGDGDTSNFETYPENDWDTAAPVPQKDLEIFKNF
Sequence of UniProt P16591 (whole entry, looked up): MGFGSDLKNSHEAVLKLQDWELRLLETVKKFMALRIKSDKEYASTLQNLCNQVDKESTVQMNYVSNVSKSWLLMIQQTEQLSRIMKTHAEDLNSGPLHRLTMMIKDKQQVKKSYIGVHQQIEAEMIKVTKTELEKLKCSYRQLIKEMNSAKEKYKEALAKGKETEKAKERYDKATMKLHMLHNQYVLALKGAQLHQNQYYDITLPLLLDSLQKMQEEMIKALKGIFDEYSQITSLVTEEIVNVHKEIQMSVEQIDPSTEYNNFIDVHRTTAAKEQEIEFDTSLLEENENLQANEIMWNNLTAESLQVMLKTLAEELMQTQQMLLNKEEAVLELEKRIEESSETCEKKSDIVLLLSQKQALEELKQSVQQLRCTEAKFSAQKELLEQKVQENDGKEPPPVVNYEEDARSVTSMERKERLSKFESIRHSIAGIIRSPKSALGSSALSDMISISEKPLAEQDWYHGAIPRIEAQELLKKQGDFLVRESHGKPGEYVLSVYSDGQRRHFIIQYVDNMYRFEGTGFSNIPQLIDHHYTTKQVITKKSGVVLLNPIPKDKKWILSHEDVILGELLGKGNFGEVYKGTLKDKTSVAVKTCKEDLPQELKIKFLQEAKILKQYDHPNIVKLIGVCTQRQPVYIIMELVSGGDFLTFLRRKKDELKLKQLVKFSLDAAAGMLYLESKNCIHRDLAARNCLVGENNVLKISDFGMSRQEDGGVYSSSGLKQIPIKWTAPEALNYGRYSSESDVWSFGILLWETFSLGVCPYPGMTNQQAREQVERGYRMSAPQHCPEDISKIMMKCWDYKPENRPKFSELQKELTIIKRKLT
Sequence of UniProt P78356 (whole entry, looked up): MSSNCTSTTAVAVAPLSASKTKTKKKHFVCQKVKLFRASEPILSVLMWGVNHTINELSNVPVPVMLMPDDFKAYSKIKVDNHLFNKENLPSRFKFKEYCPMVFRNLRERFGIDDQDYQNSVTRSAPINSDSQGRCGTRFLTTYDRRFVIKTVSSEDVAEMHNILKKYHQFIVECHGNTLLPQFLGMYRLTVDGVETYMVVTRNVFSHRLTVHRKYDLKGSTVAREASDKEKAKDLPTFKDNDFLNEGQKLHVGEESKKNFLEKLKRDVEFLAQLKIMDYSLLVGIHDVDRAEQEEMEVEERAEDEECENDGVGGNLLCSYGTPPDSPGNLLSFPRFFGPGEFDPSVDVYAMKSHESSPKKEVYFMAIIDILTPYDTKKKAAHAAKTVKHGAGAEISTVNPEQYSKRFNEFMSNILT
Sequence of UniProt Q86Z02 (whole entry, looked up): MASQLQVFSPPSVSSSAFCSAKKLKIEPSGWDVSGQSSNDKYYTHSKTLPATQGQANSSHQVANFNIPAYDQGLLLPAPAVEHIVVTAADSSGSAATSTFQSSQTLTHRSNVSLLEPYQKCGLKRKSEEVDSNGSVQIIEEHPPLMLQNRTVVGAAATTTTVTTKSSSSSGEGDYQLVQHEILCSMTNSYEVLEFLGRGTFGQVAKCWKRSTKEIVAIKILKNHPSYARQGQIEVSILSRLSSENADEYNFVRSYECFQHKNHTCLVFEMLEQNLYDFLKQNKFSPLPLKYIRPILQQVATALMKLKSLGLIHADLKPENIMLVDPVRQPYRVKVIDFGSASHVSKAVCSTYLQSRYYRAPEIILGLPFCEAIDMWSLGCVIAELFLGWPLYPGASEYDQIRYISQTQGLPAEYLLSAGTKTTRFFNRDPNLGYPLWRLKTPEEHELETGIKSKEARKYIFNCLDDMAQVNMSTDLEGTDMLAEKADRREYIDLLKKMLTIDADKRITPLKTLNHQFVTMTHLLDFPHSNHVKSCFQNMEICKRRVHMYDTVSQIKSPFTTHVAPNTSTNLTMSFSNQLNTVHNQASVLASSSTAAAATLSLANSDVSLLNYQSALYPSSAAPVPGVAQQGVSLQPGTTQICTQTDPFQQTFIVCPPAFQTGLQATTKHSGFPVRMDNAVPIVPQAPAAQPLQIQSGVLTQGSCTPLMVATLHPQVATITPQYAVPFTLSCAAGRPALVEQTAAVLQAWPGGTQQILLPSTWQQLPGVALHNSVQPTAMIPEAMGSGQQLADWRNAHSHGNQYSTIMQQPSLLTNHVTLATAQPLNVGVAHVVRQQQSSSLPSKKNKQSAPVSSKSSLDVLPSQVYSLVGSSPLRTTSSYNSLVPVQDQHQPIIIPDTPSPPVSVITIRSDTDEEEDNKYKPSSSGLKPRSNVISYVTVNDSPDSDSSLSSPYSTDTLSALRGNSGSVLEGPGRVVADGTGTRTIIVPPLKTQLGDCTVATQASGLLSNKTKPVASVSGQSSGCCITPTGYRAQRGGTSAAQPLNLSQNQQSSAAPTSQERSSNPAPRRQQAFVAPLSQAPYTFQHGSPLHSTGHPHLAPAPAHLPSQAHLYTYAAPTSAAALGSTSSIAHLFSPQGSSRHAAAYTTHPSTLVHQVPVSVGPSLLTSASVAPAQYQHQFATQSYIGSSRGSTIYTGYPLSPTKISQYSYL
Sequence of UniProt Q13153 (whole entry, looked up): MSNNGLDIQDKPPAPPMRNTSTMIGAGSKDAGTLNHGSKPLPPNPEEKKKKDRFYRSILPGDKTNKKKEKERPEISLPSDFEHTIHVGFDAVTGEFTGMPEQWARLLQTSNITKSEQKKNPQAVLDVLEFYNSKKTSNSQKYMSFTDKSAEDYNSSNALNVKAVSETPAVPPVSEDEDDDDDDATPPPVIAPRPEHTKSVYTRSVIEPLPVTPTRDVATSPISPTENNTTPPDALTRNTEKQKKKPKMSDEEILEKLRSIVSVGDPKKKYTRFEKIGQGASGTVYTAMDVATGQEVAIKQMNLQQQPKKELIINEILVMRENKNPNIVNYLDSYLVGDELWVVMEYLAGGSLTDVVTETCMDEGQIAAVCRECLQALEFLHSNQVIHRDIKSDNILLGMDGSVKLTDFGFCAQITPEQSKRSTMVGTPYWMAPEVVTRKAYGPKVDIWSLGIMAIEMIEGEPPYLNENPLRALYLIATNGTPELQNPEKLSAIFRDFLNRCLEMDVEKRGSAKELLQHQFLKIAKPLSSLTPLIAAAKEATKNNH
Sequence of UniProt Q00526 (whole entry, looked up): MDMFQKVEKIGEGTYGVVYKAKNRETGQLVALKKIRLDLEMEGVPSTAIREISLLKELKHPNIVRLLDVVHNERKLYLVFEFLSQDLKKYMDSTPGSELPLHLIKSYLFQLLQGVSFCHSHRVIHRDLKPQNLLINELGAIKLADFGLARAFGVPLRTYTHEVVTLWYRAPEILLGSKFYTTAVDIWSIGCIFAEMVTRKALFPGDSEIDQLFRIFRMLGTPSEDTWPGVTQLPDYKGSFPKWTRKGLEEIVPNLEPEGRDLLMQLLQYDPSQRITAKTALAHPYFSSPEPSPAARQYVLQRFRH
Sequence of UniProt P53667 (whole entry, looked up): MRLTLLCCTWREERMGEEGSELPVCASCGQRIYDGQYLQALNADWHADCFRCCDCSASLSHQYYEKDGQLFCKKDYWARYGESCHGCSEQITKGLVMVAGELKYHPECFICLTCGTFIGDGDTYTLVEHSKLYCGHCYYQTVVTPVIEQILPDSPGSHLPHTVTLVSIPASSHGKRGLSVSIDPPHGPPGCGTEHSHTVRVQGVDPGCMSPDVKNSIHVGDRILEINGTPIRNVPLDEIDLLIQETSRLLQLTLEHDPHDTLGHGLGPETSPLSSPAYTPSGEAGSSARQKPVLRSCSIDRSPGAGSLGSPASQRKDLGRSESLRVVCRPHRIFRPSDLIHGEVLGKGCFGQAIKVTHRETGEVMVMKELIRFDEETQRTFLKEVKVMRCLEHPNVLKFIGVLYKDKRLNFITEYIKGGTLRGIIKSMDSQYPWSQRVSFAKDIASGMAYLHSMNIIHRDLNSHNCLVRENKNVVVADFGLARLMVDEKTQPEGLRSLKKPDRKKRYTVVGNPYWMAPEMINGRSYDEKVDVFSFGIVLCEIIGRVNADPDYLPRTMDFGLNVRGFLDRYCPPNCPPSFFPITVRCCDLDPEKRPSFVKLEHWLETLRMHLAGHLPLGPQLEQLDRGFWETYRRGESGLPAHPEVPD
Sequence of UniProt P06241 (whole entry, looked up): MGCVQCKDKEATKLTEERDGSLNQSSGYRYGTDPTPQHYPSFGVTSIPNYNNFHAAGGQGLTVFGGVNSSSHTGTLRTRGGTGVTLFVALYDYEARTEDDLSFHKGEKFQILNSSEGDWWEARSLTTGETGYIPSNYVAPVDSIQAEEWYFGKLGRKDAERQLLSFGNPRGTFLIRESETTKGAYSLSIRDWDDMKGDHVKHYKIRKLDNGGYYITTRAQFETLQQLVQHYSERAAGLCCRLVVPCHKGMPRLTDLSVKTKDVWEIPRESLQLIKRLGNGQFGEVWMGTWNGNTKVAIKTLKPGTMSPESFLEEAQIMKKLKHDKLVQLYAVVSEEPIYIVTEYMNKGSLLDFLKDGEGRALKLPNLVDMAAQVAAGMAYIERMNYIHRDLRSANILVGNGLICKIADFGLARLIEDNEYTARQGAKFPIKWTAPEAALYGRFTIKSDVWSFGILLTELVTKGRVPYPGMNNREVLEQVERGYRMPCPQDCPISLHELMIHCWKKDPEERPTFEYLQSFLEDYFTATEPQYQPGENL

Block 1 — observed: cell-free assay; technique: competition with immobilised ligand; tested at: 1 µM
Structure (SMILES): O=C(Nc1cccnn1)N1CC(C/C=C/c2cncc(Oc3ccc(C(F)(F)F)cn3)n2)C1
For Calcium/calmodulin-dependent protein kinase kinase 2 (CAMKK2, Homo sapiens, UniProt Q96RR4): remaining binding read 100%.
It gave 100% for remaining binding (Receptor-type tyrosine-protein kinase FLT3 (FLT3, Homo sapiens, UniProt P36888, ITD)).
For Vascular endothelial growth factor receptor 2 (KDR, Homo sapiens, UniProt P35968): remaining binding read 64%.
The remaining binding was 97% (Serine/threonine-protein kinase VRK2 (VRK2, Homo sapiens, UniProt Q86Y07)).
For Dual specificity protein kinase CLK2 (CLK2, Homo sapiens, UniProt P49760): remaining binding read 100%.
It gave 92% for remaining binding (Tyrosine-protein kinase ABL1, phosphorylated (ABL1, Homo sapiens, UniProt P00519, Y253F)).
It gave 91% for remaining binding (cGMP-dependent protein kinase 2 (PRKG2, Homo sapiens, UniProt Q13237)).
cAMP-dependent protein kinase catalytic subunit PRKX (PRKX, Homo sapiens, UniProt P51817) — remaining binding: 92%.
The remaining binding was 95% (Epidermal growth factor receptor (EGFR, Homo sapiens, UniProt P00533, A750P/del747-749)).
It gave 97% for remaining binding (Tyrosine-protein kinase Lyn (LYN, Homo sapiens, UniProt P07948)).
For Tyrosine-protein kinase Fer (FER, Homo sapiens, UniProt P16591): remaining binding read 100%.
For Phosphatidylinositol 5-phosphate 4-kinase type-2 beta (PIP4K2B, Homo sapiens, UniProt P78356): remaining binding read 96%.
Epidermal growth factor receptor (EGFR, Homo sapiens, UniProt P00533, del747-752/P753S) — remaining binding: 100%.
Rho-associated protein kinase 2 (ROCK2, Homo sapiens, UniProt O75116) — remaining binding: 90%.
It gave 100% for remaining binding (Insulin receptor-related protein (INSRR, Homo sapiens, UniProt P14616)).
Serine/threonine-protein kinase PAK 1 (PAK1, Homo sapiens, UniProt Q13153) — remaining binding: 90%.

Block 2 — observed: enzyme activity; mode: inhibitor; tested at: 0.5 µM; baseline: control
SMILES: O=C(c1cc2cc(O)ccc2[nH]1)c1cc2cc(O)ccc2[nH]1
The remaining activity was 28.8% (Tyrosine-protein kinase Fyn (FYN, Homo sapiens, UniProt P06241)).
The remaining activity was 87.9% (LIM domain kinase 1 (LIMK1, Homo sapiens, UniProt P53667)).
It gave 78.7% for remaining activity (PAS domain-containing serine/threonine-protein kinase (PASK, Homo sapiens, UniProt Q96RG2)).
The remaining activity was 67.1% (Vascular endothelial growth factor receptor 3 (FLT4, Homo sapiens, UniProt P35916)).
It gave 97% for remaining activity (ALK tyrosine kinase receptor (ALK, Homo sapiens, UniProt Q9UM73)).
It gave 96.7% for remaining activity (Serine/threonine-protein kinase Nek11 (NEK11, Homo sapiens, UniProt Q8NG66)).
It gave 90.2% for remaining activity (Serine/threonine-protein kinase MRCK alpha (CDC42BPA, Homo sapiens, UniProt Q5VT25)).
Serine/threonine-protein kinase NLK (NLK, Homo sapiens, UniProt Q9UBE8) — remaining activity: 83.2%.
For cAMP-dependent protein kinase catalytic subunit PRKX (PRKX, Homo sapiens, UniProt P51817): remaining activity read 94.5%.
For Tyrosine-protein kinase ITK/TSK (ITK, Homo sapiens, UniProt Q08881): remaining activity read 77.7%.
For Tyrosine-protein kinase Fgr (FGR, Homo sapiens, UniProt P09769): remaining activity read 12.7%.
Serine/threonine-protein kinase 25 (STK25, Homo sapiens, UniProt O00506) — remaining activity: 105%.
For Cyclin-dependent kinase 3, with cyclin E (CDK3, Homo sapiens, UniProt Q00526): remaining activity read 85.2%.
It gave 98.2% for remaining activity (RAC-alpha serine/threonine-protein kinase (AKT1, Homo sapiens, UniProt P31749)).
It gave 86.5% for remaining activity (Tyrosine-protein kinase Fer (FER, Homo sapiens, UniProt P16591)).
Serine/threonine-protein kinase TAO3 (TAOK3, Homo sapiens, UniProt Q9H2K8) — remaining activity: 66.6%.
Megakaryocyte-associated tyrosine-protein kinase (MATK, Homo sapiens, UniProt P42679) — remaining activity: 93.3%.
The remaining activity was 76.3% (Serine/threonine-protein kinase N1 (PKN1, Homo sapiens, UniProt Q16512)).
Proto-oncogene tyrosine-protein kinase Src (SRC, Homo sapiens, UniProt P12931) — remaining activity: 36.4%.
The remaining activity was 94.3% (Homeodomain-interacting protein kinase 1 (HIPK1, Homo sapiens, UniProt Q86Z02)).
The remaining activity was 84.4% (MAP/microtubule affinity-regulating kinase 3 (MARK3, Homo sapiens, UniProt P27448)).

Block 3
SMILES: CC(C)n1cnc(-c2ccc(F)cc2)c1-c1ncc(C(=O)Nc2ccc(N3CCN(C)CC3)cc2)[nH]1
For phase 2a trial; idiopathic pulmonary fibrosis patients; oral, dose not given, urine red cells, grade 4, all arms: “patients with TEAE” read 0%.
For refers to: endocrine disorders; idiopathic pulmonary fibrosis patients; 60 mg once daily: “patients with TEAE” read 0%.
For phase 2a trial; patients with idiopathic pulmonary fibrosis; dose not given, allergic conjunctivitis, grade 3, all arms: “patients with TEAE” read 0%.
The “patients with TEAE” was 0% (refers to: free thyroxine decreased; idiopathic pulmonary fibrosis patients; 60 mg once daily).
phase 2a trial; idiopathic pulmonary fibrosis patients; oral, 30 mg once daily, LDL increased, grade 1 — “patients with TEAE”: 0%.
phase 2a trial; idiopathic pulmonary fibrosis patients; oral, 30 mg once daily, GLDH increased, grade 1 — “patients with TEAE”: 0%.
The “patients with TEAE” was 2% (phase 2a trial; idiopathic pulmonary fibrosis patients; oral, dose not given, ESR increased, grade 1, all arms).
For phase 2a trial; patients with idiopathic pulmonary fibrosis; 60 mg once daily, atopic dermatitis, grade 3: “patients with TEAE” read 0%.
phase 2a trial; idiopathic pulmonary fibrosis patients; oral, 60 mg once daily, LDL increased, grade 3 — “patients with TEAE”: 0%.
For phase 2a trial; idiopathic pulmonary fibrosis patients; oral, 30 mg once daily, urine red cells, grade 5: “patients with TEAE” read 0%.
phase 2a trial; idiopathic pulmonary fibrosis patients; oral, 60 mg once daily, blood/lymphatic disorders, grade 4 — “patients with TEAE”: 0%.
It gave 0% for “patients with TEAE” (refers to: skin papilloma; idiopathic pulmonary fibrosis patients; 30 mg once daily).
It gave 0% for “patients with TEAE” (phase 2a trial; idiopathic pulmonary fibrosis patients; oral, 60 mg once daily, ESR increased, grade 3).
phase 2a trial; patients with idiopathic pulmonary fibrosis; dose not given, atopic dermatitis, grade 5, all arms — “patients with TEAE”: 0%.

Block 4
Compound: COc1cc(Nc2ncc(F)c(Nc3ccc4c(n3)N(COP(=O)(O)O)C(=O)C(C)(C)O4)n2)cc(OC)c1OC
The EC50 was 0.389 µM (Serine/threonine-protein kinase B-raf (BRAF, Homo sapiens, UniProt P15056, G469A); kinase-HSP90-CDC37 interaction, LUMIER; human cells).
It gave 0.992 µM for EC50 (Fibroblast growth factor receptor 1 (FGFR1, Homo sapiens, UniProt P11362); kinase–CDC37 interaction, inhibitor; human cells; FGFR1OP-FGFR1 fusion kinase).
The EC50 was 0.033 µM (Aurora kinase C (AURKC, Homo sapiens, UniProt Q9UQB9); kinase–CDC37 interaction; kinome plate 3@E02).
The EC50 was 9.97 µM (Myosin light chain kinase family member 4 (MYLK4, Homo sapiens, UniProt Q86YV6); kinase–CDC37 interaction).

For quick reference, copied from above (block 3):
The “patients with TEAE” was 0% (refers to: free thyroxine decreased; idiopathic pulmonary fibrosis patients; 60 mg once daily).
phase 2a trial; idiopathic pulmonary fibrosis patients; oral, 30 mg once daily, LDL increased, grade 1 — “patients with TEAE”: 0%.
phase 2a trial; idiopathic pulmonary fibrosis patients; oral, 30 mg once daily, GLDH increased, grade 1 — “patients with TEAE”: 0%.
The “patients with TEAE” was 2% (phase 2a trial; idiopathic pulmonary fibrosis patients; oral, dose not given, ESR increased, grade 1, all arms).
For phase 2a trial; patients with idiopathic pulmonary fibrosis; 60 mg once daily, atopic dermatitis, grade 3: “patients with TEAE” read 0%.
